Assay results from different studies.
Every numbered part comes from another study and shows a few of its results, in no order. Changes are numbered by the printed parent chain.

Study 1 — method: DHFR PCA, deep sequencing; sample: yeast; together with: (+)-ABA 4.8 µM; relative to: wild-type fitted maximum; direction: higher = stronger binding
Target: ABI1, truncated, D143A, DHFR fusion (Arabidopsis thaliana)
Setting: methotrexate growth selection, single substitutions
Starting sequence: PYL1, truncated, DHFR fusion (Arabidopsis thaliana); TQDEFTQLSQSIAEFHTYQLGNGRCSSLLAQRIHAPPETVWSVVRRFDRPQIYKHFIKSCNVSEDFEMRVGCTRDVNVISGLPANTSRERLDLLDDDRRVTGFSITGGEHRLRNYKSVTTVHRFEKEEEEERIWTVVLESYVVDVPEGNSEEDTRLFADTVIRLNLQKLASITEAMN; partner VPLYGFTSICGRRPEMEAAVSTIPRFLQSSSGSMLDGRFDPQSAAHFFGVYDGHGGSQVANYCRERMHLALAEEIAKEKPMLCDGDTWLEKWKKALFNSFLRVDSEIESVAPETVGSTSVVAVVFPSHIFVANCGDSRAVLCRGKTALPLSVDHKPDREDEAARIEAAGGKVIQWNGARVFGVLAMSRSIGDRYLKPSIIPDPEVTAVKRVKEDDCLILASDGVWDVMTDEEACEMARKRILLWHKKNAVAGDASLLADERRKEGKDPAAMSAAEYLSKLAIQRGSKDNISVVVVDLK
Change | relative binding score
T39H | 53.7%
A13R | 74.8%
T154G | -7.63%
A84H | 41.9%
V121Q | -11.4%
Q31G | -2.41%
E128W | 52.1%
G107V | -0.709%
V43C | 19.5%
C25N | -6.1%
V62I | 68%
V62K | 1.59%
D95C | 31.4%
G71W | -8.98%
E152T | 55.8%
F157L | 42.1%
R123G | 86.7%
Q167I | 47.3%

Study 2 — target: CCND1, cyclin fold, Cln2 fusion (human); method: yeast growth competition, sequencing; sample: yeast; setting: weak parent motif; relative to: not given; direction: higher = stronger binding
Starting sequence: CDC6 docking peptide (human); TLKGRRLVFDNQL
Change | normalised enrichment score
TLKGRRLGFDNQL [V8G] | 0.244
YLKGRRLVFDNQL [T1Y] | -0.531
TLKGRSLVFDNQL [R6S] | 0.182
KLKGRRLVFDNQL [T1K] | 0.363
TLCGRRLVFDNQL [K3C] | 0.953
TLKGRRLAFDNQL [V8A] | -0.369
TLKGRRLVFDNQV [L13V] | 0.635
TLKGRRLVFDAQL [N11A] | 1.09
TGKGRRLVFDNQL [L2G] | 0.258
TLKARRLVFDNQL [G4A] | 0.598
TLKGRRLVFKNQL [D10K] | -0.377
TLKGRRLYFDNQL [V8Y] | -0.0367
TLKGRCLVFDNQL [R6C] | 0.736
TRKGRRLVFDNQL [L2R] | 1.08
TLKGRRLPFDNQL [V8P] | -0.335
TLKGRRLVDDNQL [F9D] | 0.371
TLPGRRLVFDNQL [K3P] | 0.0514
TLKGRRLVFRNQL [D10R] | 0.278
TLKGRRNVFDNQL [L7N] | 0.0239
TLKGRDLVFDNQL [R6D] | 0.257

Study 3 — method: RNA Bind-n-Seq; form: RNA; sample: in vitro; tested at: not given; relative to: input RNA pool; direction: higher = stronger binding
Target: RING finger protein unkempt homolog, zinc fingers 1-6, GST-SBP tag (UNK, Homo sapiens, UniProt Q9C0B0, residues 30-357)
Sequence of UniProt Q9C0B0 (30-357, looked up): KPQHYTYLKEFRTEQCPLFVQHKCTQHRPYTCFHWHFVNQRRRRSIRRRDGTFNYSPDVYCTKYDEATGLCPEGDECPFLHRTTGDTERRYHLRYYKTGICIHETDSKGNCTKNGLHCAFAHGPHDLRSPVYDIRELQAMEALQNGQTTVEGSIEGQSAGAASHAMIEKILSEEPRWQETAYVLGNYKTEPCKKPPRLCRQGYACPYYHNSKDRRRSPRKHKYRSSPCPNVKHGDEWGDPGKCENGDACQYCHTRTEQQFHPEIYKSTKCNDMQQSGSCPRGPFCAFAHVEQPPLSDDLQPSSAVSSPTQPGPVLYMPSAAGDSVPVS
Setting: RNA with constant flanks, human and mouse sites, ends assumed
Sequence | bound/input enrichment [ratio]
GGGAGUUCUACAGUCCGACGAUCCUUUUUAAGAAGAUAUGUGAUGGGAUCUUUUAUACCCCUCAGUACUUAAACCCUUCAGUAAUCAGCCUUUUGAAACAUAUGCUGCAGGUGGAUCCCAUGAAGAGGGCCGCAAUAAAAGAUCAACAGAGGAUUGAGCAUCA | 0.224
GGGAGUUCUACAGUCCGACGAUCCAGCCAGGGAUUUUUGGGUUUUUUGUUUUGGGUUGAGUCUGGGUGUUAUUUUUGUUUGUUUUAGGCAUAUAAUUCCCGAUGUAAUUUGAUUUAAAAGUAUAACUGACUUGCUUUUAAAUCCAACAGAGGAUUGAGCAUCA | 0.533
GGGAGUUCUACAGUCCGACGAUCAGCUCAACAAUUGAGGCAGAGGAACAAAAGAUACCCGAAGACAGUAUCUAUAUUGGAACUGCCAGUGAUGAUUCUGAUAUUGUUACCCUUGAGCCACCUAAGUUAGAAGAAAUUGGAAAUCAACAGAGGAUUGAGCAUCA | 2.73
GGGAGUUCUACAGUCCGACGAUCCAAGUACAUCUUGGUGUUAGUGAUGAUCUUGGAUUGCUUGCUCACAUGACCGGUAGCGUAGACUUAACUUGUACAUCCAGUAUAAUAGAAGAAAAAGAAUUCAAAAUCCAUACAACUUCACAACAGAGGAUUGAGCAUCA | 1.41
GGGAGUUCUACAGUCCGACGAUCCGAUUUUUUUAUAAAGAGAAAGAAUCUGUGAACGCCAAAGUUCUUAAGGAUGUUAAGUUUCCUCUUAUGUUGGAUGUGUAUGAACUCUGCACACCAGAACUUCAAGAGAAAAUGGUCUCUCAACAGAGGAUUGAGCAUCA | 0.225
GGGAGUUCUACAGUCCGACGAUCACCUCUUUAGUGUGUUCUGUGACGCUGCUCAUUACGAUUCUGUGUUCUACUUUGAUCCUUUUAGCUGUUUUCAAAUAUGGCCACUUUUCCCUGUAAGUUUUGUACAGCUAAGUGUUUUCUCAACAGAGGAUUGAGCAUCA | 0.535
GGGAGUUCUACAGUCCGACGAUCACAUCUGACUGCUGGAUGAAGACUGUUCCAAGUUAUAACCAAACAAAUAGCUCCAUGGACUUUAGAAAUUAUAUGAUGAGAGAUGAGAAUCUGGAACCGCUGCCCAAAAACUGGGAAAUGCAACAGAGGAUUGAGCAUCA | 9.87
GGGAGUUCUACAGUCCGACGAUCUUUGUGACCAUUUAAUUAUUGUUUCAGAACUUCUGCAUGGCCUUCAGAUAAAAAUUAAGUAAAAUUUACCUUAACUCUAAAGCUACAGUAUUUUUAAGAAAUAGUAUUUUACCCUAGCAGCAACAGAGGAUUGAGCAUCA | 8.41
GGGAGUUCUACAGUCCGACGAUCCUCAGGUUAGAACAAAAAUGUCAUAAAGGGCACUAAAAGUAACAUUUGGGUUUCACUCCAUAUCUAGAAGAAUUUAGCUCACAAAACAAUUUUUGUGUGUUUUGAGUAACUGAUGCAUAACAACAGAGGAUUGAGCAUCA | 5.21
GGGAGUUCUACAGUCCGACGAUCUCUGUGUUUAUCAUUUUCUUCCAAGGCGAUCAGCUGAAAAACAGAGUCAAGAAAAUCUGUGAAGGGUUCCGAGCCUCACUCUAUCCCUGUCCUGAGACACCACAGGAGAGGAAGGAAAUGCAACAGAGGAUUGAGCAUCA | 0.146
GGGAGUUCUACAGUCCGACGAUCGGCCCAAAAGGAAAUGAAAUACGAACAUCAAAAGAAGUUGAACCUUUCAACAAUAUUGAUAUUGAAAUUUCUAUGUUUGAAAAAGGGAAGGUACCUAAGAUUGUCAACCUAAGGGAAAUACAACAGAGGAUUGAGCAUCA | 0.223

Study 4 — method: universal PBM; form: double-stranded DNA, one strand shown; sample: in vitro; tested at: not given; direction: higher = stronger binding
Target: Sal-like protein 4, full length isoform B (SALL4, Homo sapiens, UniProt Q9UJQ4-2, residues 1-616)
Setting: 8-mer, flanks averaged, mean of replicates
Sequence | E-score
TAGCTGCA | -0.143
GGCACAAC | -0.161
CCAAGTGG | -0.15
AGGCAGGA | -0.0322
ATTTCGTA | 0.187
CTGAAGTA | 0.0402
AACAAATT | 0.305
AGTCTTCA | -0.0186
CCAAGGAC | -0.125
ATCAGCAA | -0.0395
AGTTAAAT | 0.24
AGATCATG | 0.0426
AATAGCGG | -0.0204
GGGGCTAC | -0.269
AAACTTAT | 0.368
CAAGTGGC | 0.0154
CTCTTTTA | 0.104

Study 5 — target: CREB5, bZIP domain (human); method: DHFR protein complementation; sample: yeast; relative to: wild-type JUN-FOS pair; direction: higher = stronger binding
Setting: single substitutions, most at no-binding floor
Starting sequence: JUN, bZIP domain (human); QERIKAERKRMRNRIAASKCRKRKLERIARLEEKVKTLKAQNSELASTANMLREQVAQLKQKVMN; partner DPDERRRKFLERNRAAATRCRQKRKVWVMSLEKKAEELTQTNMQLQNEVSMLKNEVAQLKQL
Change | binding fitness
M51C | -0.382 natural log
A40E | -0.188 natural log
E54R | -0.41 natural log
V56R | -0.725 natural log
A49Q | -1.11 natural log
K36G | -0.534 natural log
E33I | -0.629 natural log
S47G | -0.351 natural log
N42I | -1.26 natural log
T37R | -0.24 natural log
L45F | -1.27 natural log
T48Y | -0.311 natural log
T37W | -0.286 natural log
Q55C | -0.576 natural log
A57Q | -0.39 natural log
E44S | -0.457 natural log
L31I | -0.624 natural log

Repeated from above (study 5):
Change | binding fitness
V56R | -0.725 natural log
A49Q | -1.11 natural log
K36G | -0.534 natural log
E33I | -0.629 natural log
S47G | -0.351 natural log
N42I | -1.26 natural log
T37R | -0.24 natural log
L45F | -1.27 natural log
T48Y | -0.311 natural log
T37W | -0.286 natural log
